Published values collected from several papers.
Protocols differ between the studies behind these lines. Numbers after ± are the reported error.

Compound = C[C@]12CC[C@H](O)CC1CCC1C2[C@H](O)C(=O)[C@]2(C)[C@@H](c3ccc(=O)oc3)CC[C@]12O (stereo partly drawn); test = sulfation, substrate; system = rabbit liver cytosol; conditions = pH 7.4; measurement = CLint; result = 1.27 µL/min/mg
Compound = COc1cc2c3c(c4cc(OC)c(OC)cc4c2cc1OC)CN1CCCCC1C3 (stereo not drawn); system = Sprague-Dawley rat, male; conditions = oral, dose not given; measurement = Tmax; result = 1 h
Compound = CC[C@H](C)[C@H](NC(=O)[C@H](Cc1ccccc1)NC(=O)[C@@H]1CCCN1C(=O)[C@H](CCCCN)NC(=O)[C@H](CCCCN)NC(=O)[C@H](Cc1ccccc1)NC(=O)[C@H](Cc1ccccc1)NC(=O)[C@@H](C)NC(=O)[C@@H](N)Cc1ccc(O)cc1)C(=O)N[C@@H](CC(C)C)C(=O)O; system = anesthetized rat; conditions = intrathecal, 10 nmol/rat, 10 min; measurement = heart rate; result = 418 ± 32 beats/min
Compound = Cc1ccc(/C=C/C(=O)O)cc1-c1cc2c(cc1C)C(C)(C)CCC2(C)C; system = Sprague-Dawley rat, male; conditions = oral, 100 mg/kg, 2 h, sesame oil vehicle; measurement = blood triglycerides; result = 118 ± 21.6 mg/dL
Compound = CC[C@H](C)[C@H](NC(=O)[C@H](CC(=O)O)NC(=O)[C@H](CO)NC(=O)[C@H](CCC(N)=O)NC(=O)[C@H](C)NC(=O)[C@H](CC(=O)O)NC(=O)[C@H](CCC(=O)O)NC(=O)[C@H](Cc1c[nH]cn1)NC(=O)[C@H](Cc1ccc(O)cc1)NC(=O)[C@H](C)NC(=O)[C@H](CC(=O)O)NC(=O)[C@H](CCC(=O)O)NC(=O)[C@H](Cc1c[nH]cn1)NC(=O)[C@H](Cc1ccc(O)cc1)NC(=O)[C@H](C)NC(=O)[C@H](CC(=O)O)NC(=O)[C@H](CCC(=O)O)NC(=O)[C@H](Cc1c[nH]cn1)NC(=O)[C@H](Cc1ccc(O)cc1)NC(=O)[C@H](C)NC(=O)[C@H](CC(=O)O)NC(=O)[C@H](CCC(=O)O)NC(=O)[C@H](Cc1c[nH]cn1)NC(=O)[C@H](Cc1ccc(O)cc1)NC(=O)[C@H](C)NC(=O)[C@H](CC(=O)O)NC(=O)[C@H](CCC(=O)O)NC(=O)[C@H](Cc1c[nH]cn1)NC(=O)[C@@H](N)Cc1ccc(O)cc1)C(=O)N[C@H](C(=O)N[C@@H](C)C(=O)N[C@@H](Cc1c[nH]cn1)C(=O)N[C@@H](CC(C)C)C(=O)N[C@@H](CC(C)C)C(=O)O)C(C)C; system = mouse, SN model; conditions = dose not given; measurement = BUN; result = 19.6 ± 1.5 mg/dL
Compound = c1ccc(/N=c2\oc3ccccc3cc2-c2ccccc2)cc1; system = male albino rat; conditions = oral, 24 h; measurement = LD50; result = > 200 mg/kg
Compound = CC[C@H](C)C(=O)N1CCC(NC(=O)Nc2ccc(OC(F)(F)F)c(F)c2)CC1; system = human, plasma; conditions = oral, 8 mg, single dose, fasted, healthy volunteers; measurement = AUC(0-inf); result = 3260 ng·h/mL
Compound = CNC(=O)Oc1cc(C)c(S(C)(=O)=O)c(C)c1; system = human liver cytosol; conditions = 1 µM, 30 min, 1 mg/mL protein; measurement = percent metabolized; result = 67.6%
Compound = CN(C)C(CNC(=O)Nc1cc(C(F)(F)F)ccc1N1CCOCC1)c1ccncc1 (stereo not drawn); system = mouse, serum; conditions = intraperitoneal, 360 mg/kg single dose; measurement = serum alkaline phosphatase; result = 329 U/L
Compound = O=C(NCCCCCCn1ccc2ccccc21)Oc1ccccc1; system = porcine plasma; conditions = 20 µM, 30 min; measurement = parent remaining; result = 68 ± 8%
Compound = COc1cc(NC(=O)C(=O)c2c(C)n(Cc3ccc(Cl)cc3)c3ccc(C)cc23)ccn1; system = cynomolgus monkey, male and female, plasma; conditions = intravenous, 1 mg/kg, mean; measurement = clearance; result = 9.35 mL/min/kg
Compound = CN[C@](C)(C[18F])C(=O)O; system = mouse, muscle; conditions = 30 min, tumour-bearing; measurement = tracer uptake; result = 1.4 %ID/g
Compound = CC(=O)[O-].CN1CCCN2CCN(CCCN(Cc3ccccc3)CC2)CC1.F[P-](F)(F)(F)(F)F.[Co+2]; test = cyclic voltammetry, measured: second Co2+/Co3+ couple; system = acetonitrile; measurement = peak separation; result = 100 mV
Compound = C[C@H](NCc1ccc(-c2ccc(C(F)(F)F)cc2)cc1)C(N)=O; test = metabolic stability; system = human, liver microsomes; conditions = 1 µM, 30 min, pH 7.4; measurement = compound remaining; result = 92%
Compound = CCN(Cc1ccccc1)C(=O)CCc1nc(CN2CCN(C(=O)Cc3ccc(OC)c(OC)c3)CC2)no1; system = rat, dorsal root ganglion; conditions = intravenous, 1 mg/kg, 15 min; measurement = concentration; result = 0.14 ± 0.012 ng/mg
Compound = CCC(C)C(=O)OC1C2C3(C)CCC(OC4CC(OC)C(OC5OC(C)C(O)C(OC)C5O)C(C)O4)CC3CCC23OC32CCC(C(C)=O)C2(C)C1OC(C)=O (stereo not drawn); system = Caco-2; conditions = 10 µM; measurement = efflux ratio; result = 1.01
Compound = CCCCCCCCCCCCC(=O)O.O=C1CCCC2C3CCCN4CCCC(CN12)C34 (stereo not drawn); test = electrical conductivity; system = water; conditions = 303.15 K, critical micelle concentration; measurement = standard entropy of micellization; result = 101 J/(mol·K)
Compound = CC1=CC=c2ccc3c4c2[N]1[Re](=[C]=O)(=[C]=O)(=[C]=O)([C]#[N+]c1cc(C)cc(C)c1)[N]4C(C)=CC=3.O=S(=O)([O-])C(F)(F)F; system = PBS; conditions = 10 µM, air-equilibrated; measurement = luminescence lifetime; result = 1.1 µs
Compound = CC(=O)NC(Cc1ccc(Br)c(Cl)c1)C(=O)N[C@@H](C)C(=O)N1CCC[C@H]1C(=O)N1CCC[C@H]1C(=O)N[C@@H](CCC(=O)O)C(=O)N[C@@H](Cc1c[nH]cn1)C(=O)N[C@@H](CO)C(=O)N[C@H](C(=O)N[C@@H](C)C(N)=O)[C@@H](C)OP(=O)(O)O (stereo partly drawn); test = chemical stability; system = human, serum; conditions = 5 µM, 2 h; measurement = compound remaining; result = ~75%
Compound = O=C(CN1CCN(c2cc3c(cc2F)c(=O)c(C(=O)O)cn3C2CC2)CC1)Nc1ccc(Cl)cc1; test = two-compartment model, measured: k21; system = BALB/c mice, female; conditions = iv, 3.75 mg/kg; measurement = rate constant; result = 0.0325 min⁻¹
Compound = C(#Cc1cncc(OC[C@@H]2CCN2)c1)c1ccccc1; system = Caco-2; conditions = 100 µM, 2 h, pH 7.4; measurement = efflux ratio; result = 1.11

A few entries again:
Compound = C[C@]12CC[C@H](O)CC1CCC1C2[C@H](O)C(=O)[C@]2(C)[C@@H](c3ccc(=O)oc3)CC[C@]12O (stereo partly drawn); test = sulfation, substrate; system = rabbit liver cytosol; conditions = pH 7.4; measurement = CLint; result = 1.27 µL/min/mg
Compound = COc1cc2c3c(c4cc(OC)c(OC)cc4c2cc1OC)CN1CCCCC1C3 (stereo not drawn); system = Sprague-Dawley rat, male; conditions = oral, dose not given; measurement = Tmax; result = 1 h
